Assay results collected from several papers.
Parts stem from different laboratories: compare values within a part only.

Series 1
Target: Ras GTPase-activating protein-binding protein 1, RRM domain (G3BP1, Homo sapiens, UniProt Q13283)
Sequence of UniProt Q13283 (whole entry, looked up): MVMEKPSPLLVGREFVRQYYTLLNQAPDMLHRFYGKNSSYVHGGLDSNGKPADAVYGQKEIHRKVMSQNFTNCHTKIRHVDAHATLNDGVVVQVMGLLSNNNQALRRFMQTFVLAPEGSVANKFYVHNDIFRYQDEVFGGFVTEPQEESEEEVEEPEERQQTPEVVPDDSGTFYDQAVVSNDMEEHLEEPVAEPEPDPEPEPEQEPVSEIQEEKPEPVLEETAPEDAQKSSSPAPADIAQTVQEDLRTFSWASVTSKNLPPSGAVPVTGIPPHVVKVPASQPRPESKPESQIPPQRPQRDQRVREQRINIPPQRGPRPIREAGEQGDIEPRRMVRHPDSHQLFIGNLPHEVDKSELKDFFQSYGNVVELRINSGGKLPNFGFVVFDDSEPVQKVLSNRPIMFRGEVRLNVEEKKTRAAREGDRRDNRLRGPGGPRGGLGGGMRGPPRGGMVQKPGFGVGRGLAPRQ
Method: RNA Bind-n-Seq
Form: RNA
Sample: in vitro
Tested at: 1 µM
Setting: whole 134-nt RNA, ends assumed
Together with: 150 mM KCl
Baseline: input library
Direction: higher = stronger binding
Oligonucleotide	log2 enrichment
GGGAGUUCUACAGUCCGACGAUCAGUCCUGUGCUACACAUCGUAUGUACCGAAUCGGGUUUUUGGGUUUGGGUUUUUGGGAAAGUAUUAUGUUACGCCGUUCGGAUCUGCACUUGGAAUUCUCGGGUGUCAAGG	0.319
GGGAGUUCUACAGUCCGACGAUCUGGCCCUGGUGGCAUGCGGGGAGGUAGAGGUGGCCUCAUGGAUCGUGGUGGUCCCGGUGGAAUGUUCAGAGGUGGCCGUGGUGGAGACAGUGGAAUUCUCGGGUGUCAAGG	0.975
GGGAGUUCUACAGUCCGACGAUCGCAGGAAGUAAAAACAAAUGGAAAUGCUUCGGAUAGUGGCAGGGGUGGGGGUUGCUUAGGAAAGGGUGGGAUGGGAGUGGGUAAAGAGUUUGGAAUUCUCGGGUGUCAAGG	1.45
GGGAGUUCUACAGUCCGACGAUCUCAAGUCCUGUGCUACACAUCGUAUGUACCGAAUCGGAGGAAAGGAAAAAAAGGAAAGUAUUAUGUUACGCCGUUCGGAUCUGCACUUCCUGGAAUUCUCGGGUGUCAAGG	-0.101
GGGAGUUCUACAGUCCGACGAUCACCAUGCAGGUGGGCAUCUUAAAGAAGUGGGGCAAGGGGGGGAUAGGGAGGGGGGUAACACUUUGGGAACAGGUGGUCCCAGGUCGUUUCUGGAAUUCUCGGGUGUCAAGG	-0.417
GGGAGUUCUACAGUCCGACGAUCAGUCCUGUGCUACACAUCGUAUGUACCGAAUCGGGAAAAGGGGAAAAGGGAAAAGGGGAAAGUAUUAUGUUACGCCGUUCGGAUCUGCACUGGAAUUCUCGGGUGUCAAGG	0.449
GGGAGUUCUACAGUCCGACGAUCCACAGACAACACGCACCCACACAGACACAGAGGGAAGGGGUUGGGAUGGGGACAGGGUGCACAGCAGGGCGGGGUAGGACCCCAAAACCUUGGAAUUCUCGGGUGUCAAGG	-0.226
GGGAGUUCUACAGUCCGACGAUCGUCCUGUGCUACACAUCGUAUGUACCGAAUCGGGGUGGGGUUUUUUUGGGGAAAGGGGAAAGUAUUAUGUUACGCCGUUCGGAUCUGCACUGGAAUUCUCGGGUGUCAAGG	0.937
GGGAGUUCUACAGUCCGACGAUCAAGUCCUGUGCUACACAUCGUAUGUACCGAAUCGGGGAGGGGAAAGGGGUUUGGGGAAAGUAUUAUGUUACGCCGUUCGGAUCUGCACUUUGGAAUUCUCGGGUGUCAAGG	1.18

Series 2
Target: RING finger protein unkempt homolog, zinc fingers 1-6, SBP tag (UNK, Homo sapiens, UniProt Q9C0B0, residues 30-357)
Sequence of UniProt Q9C0B0 (30-357, looked up): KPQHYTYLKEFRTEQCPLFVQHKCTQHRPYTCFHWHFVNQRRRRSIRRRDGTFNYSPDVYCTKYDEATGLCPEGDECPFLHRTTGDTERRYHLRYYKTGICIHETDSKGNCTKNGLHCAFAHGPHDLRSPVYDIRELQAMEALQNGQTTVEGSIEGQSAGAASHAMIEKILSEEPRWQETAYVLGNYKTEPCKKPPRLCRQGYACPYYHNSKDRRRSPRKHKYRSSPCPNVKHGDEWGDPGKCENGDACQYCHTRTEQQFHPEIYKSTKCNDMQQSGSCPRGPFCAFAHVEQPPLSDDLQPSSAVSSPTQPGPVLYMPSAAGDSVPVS
Method: RNA Bind-n-Seq
Form: RNA
Sample: in vitro
Tested at: 100 nM
Setting: RNA with constant flanks, vertebrate orthologous sites, ends assumed
Baseline: input RNA pool
Direction: higher = stronger binding
Oligonucleotide	bound/input enrichment [ratio]
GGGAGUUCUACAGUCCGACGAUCAAAUCAUGGUCGCUUUUUACCGCCUCAAUGAGGUAGUCUCUCUUGAUGUUUGGUUGUGACAAGAGCCCAUCGUACCAAAUAAGUCUUUCCACAUUUCAUUUCUUUCACACUCUUAGUCACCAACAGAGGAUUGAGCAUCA	0.855
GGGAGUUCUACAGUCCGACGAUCAAAUUUAUUUCAUGCCCUGGACUCCCUACCGCACCGAUACUUUAAUAGAAUAUGCCUCUAUUGAAGAUUUCCAAAACAGUCGCCAAACAACGACAUACAAACUUCCAAACCGAGUAGAUGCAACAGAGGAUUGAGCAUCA	0.738
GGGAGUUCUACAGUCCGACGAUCUGUCUGCCUCAUUCUAAAAUUUACACAGUAGACCAUUUGUCAUUCAUGCUGUCCCACAAAUAGUUUUUUGUUUACGAUUUAUGACAGGUUUAUGUUACUUCUAUUUGAAUUUCUAUAUUUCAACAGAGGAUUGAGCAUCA	1.07
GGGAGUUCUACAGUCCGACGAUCCUUCCUUCCUUCCUUUAUUUUUUUUAUUUUUUUUUUAAUUUUUCUUUCUUUUUGUUUUGGUAGUAGUUGUUACCCACGCCAUUUUACGUCUCCUUCACUGAAGGGCUAGAGUUUUAACUUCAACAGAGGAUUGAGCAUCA	12.2
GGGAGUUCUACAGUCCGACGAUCUGUCCGUAAGUACUGUCCCUGGCCGGGGCCAAAGGCCAGGUGUCUCACCAAGGACAUGCAUUUAAAACAUUUUUUAAAUCAUUGUACAAGAAGAGAUGUGUCUGAACGGCAUCUCAAAGUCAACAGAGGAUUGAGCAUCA	0.231
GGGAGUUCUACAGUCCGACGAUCAAAUUUAUUUCAUGCCCUGGACUCCCUAUCGUACUGAUACUUUAAUAGAAUAUGCUUCUUUAGAAGAUUUCCAAAAUAGUCGCCAAACAACGACAUAUAAACUUCCAAAUCGAGUAGAUGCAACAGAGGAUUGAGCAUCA	1.07
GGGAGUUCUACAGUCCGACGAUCUAUUUUCUUAUUUUAGGUAUCAUUGCCCAAUGCCUAAGAUCUUUUACGUUCAGCUCACUGUAGGAAAUAAUGAAUUUUUUGGGGAAGGAAAGACUCGACAAGCUGCUAGACACAAUGCUGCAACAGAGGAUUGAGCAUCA	1.3
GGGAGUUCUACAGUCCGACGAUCACAGGAGCAGCACAGGCUGUCUGAUCUUUGGGGAAAUGAGCUUUGCUUUUUAUAUUUAAAUAGGAUACUUUUAUAUGAUGGGUGCUUUGAGUGUGAAUGCAGCAGGCUCUCCAUUUCAGACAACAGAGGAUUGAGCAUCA	0.938

Series 3
Target: Interferon regulatory factor 7, full length, phosphomimetic (IRF7, Homo sapiens, UniProt Q92985, residues 1-503, S471D/S472D/S475D/S476D/S477D/S483D/S484D/S487D)
Method: protein-binding microarray
Form: double-stranded DNA, one strand shown
Sample: in vitro
Tested at: 2200 nM top
Setting: 60-bp whole probe
Together with: salmon DNA 0.4 mg/ml
Baseline: random background probes
Direction: higher = stronger binding
Constant ends, left off below: GCCTAGCAC … GTCTTGATTCGCTTGACGCTGCTG
Target sequence (chain): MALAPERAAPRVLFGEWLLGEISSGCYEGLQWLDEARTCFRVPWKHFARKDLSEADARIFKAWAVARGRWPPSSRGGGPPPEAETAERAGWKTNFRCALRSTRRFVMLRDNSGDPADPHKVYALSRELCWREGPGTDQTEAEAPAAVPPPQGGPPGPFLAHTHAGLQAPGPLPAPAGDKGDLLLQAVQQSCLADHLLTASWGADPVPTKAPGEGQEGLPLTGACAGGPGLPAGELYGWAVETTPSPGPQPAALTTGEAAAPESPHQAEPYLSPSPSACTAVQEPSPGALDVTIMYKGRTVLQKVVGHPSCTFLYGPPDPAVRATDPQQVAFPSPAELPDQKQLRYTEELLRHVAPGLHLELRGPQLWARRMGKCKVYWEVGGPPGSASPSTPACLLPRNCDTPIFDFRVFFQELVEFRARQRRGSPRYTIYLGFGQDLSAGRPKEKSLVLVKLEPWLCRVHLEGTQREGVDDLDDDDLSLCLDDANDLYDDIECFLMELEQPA
Oligonucleotide	fitted relative affinity [z-score]
GCCGGACTGGGGTTTCGGGACGTGCTA	0.16
TTAGGCCTGGACTATCGGTTAGTGCTA	-0.344
CTCTACATGTGTTTAAAAAGGTGCTAG	0.488
ATAGGACTGGGGACTGGGTTAGTGCTA	-0.678
GACGGTTTCGGGATTCGGGACGTGCTA	5.89
CTTAGCTTGGGTCTGTGCCTGTGCTAG	-0.347
TTAGAACTGAGACTGTATTAGTGCTAG	-0.677
TTAGGACTGGGACTAGGTTAGTGCTAG	-0.783
TTAGGTAACGACTTTCGGTTAGTGCTA	5.38
TACGATTTCAGTCTCGAGACGTGCTAG	1.11
TTAGGACTGCTTATCCCTTAGTGCTAG	0.48
TTAGGACTGCTACTGTTTTAGTGCTAG	0.39
TTAGATTCCAGTTCCGATTAGTGCTAG	2.04
TCAGATTTCAATTAAAAACTGTGCTAG	-0.166
GGTCTTTCCGATTAGTCCCCGTGCTAG	3.67
GACGGTTTCTGACTGGGGACGTGCTAG	1.53
TTAGGTATCCTTATCCTTTGGTGCTAG	0.506
TAAGATATCAGTTTCGATTAGTGCTAG	5.76
GACGATTCCAGTTACGAGACGTGCTAG	0.9

Series 4
Target: RNA binding protein fox-1 homolog 2, RRM domain, GST-SBP tag (RBFOX2, Homo sapiens, UniProt O43251-10, residues 100-194)
Method: RNA Bind-n-Seq
Form: RNA
Sample: in vitro
Tested at: 365 nM
Setting: natural RNA segment, single round, ends assumed
Baseline: no-protein control
Direction: higher = stronger binding
Residues (chain): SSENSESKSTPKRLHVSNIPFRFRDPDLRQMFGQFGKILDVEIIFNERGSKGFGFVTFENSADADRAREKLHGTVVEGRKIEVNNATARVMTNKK
Oligonucleotide	RBNS enrichment (R)
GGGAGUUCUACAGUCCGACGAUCAAUGGUGUCUUUUGAAAUGCACUUGUUUUUAAUUUUAAUGAAGCCUAAUGUAUUAGUUUCCUUAUACGAGUUAUGCUUUUAGUACUGUAUCUCUCUCUGCUUAACUAAAGUGGAAUUCUCGGGUGCCAA	0.491
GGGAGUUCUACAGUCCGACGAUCCUGCCUUGUUCUGUCAUCCAGGGCUCCUUUGCUGCCCCGUUCUGUCACCCAGGGCUCCUAGGGGGACAAGGCUCUCUCCCGAGGGGUGUGGAAUUCCUGGGGGGGUCUUUUGGAAUUCUCGGGUGCCAA	1.07
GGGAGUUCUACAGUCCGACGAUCCAUUGCCAUUUAUUCUAGAAUUAAUCAUGCAUUUGAGGUAAUACAAAAUAUAGUUUUAUCAUGUUAGGUGUAAUUAUGAUUUGAUUAAAUAUAUAAUGCAUUUGCAGUUGUGGAAUUCUCGGGUGCCAA	0.284
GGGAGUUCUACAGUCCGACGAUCGGAGGUCUCCAGUUCACAAGAGCUUCCUGGGAAGGAUAAUAAUCAUGUUUGUAGGAAUCUCAUUCCCAUCGACCUUUACCGAUGGAGAGCCAAUUGUAAUUCUUUUGCCCUGGAAUUCUCGGGUGCCAA	0.42
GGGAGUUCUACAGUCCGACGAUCAGAGAUCUAAGUCUGAUAUUUAAGGAGUGAUAGCAUCUUGCAUACUUAAGAAGGCUUAAAAGACUGCAUGGUUUAAACCCUAGAAACAUAAAUGGAAUGUUUCUGCCUCAUGGAAUUCUCGGGUGCCAA	4.38
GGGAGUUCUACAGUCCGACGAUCAACCACCAUGCCCAGCCGAAAAGCUUUUGAGGGGCUGACUUCAAUCCAUGUAGGAAAGUAAAAUGGAAGGAAAUUGGGUGCAUUUCUAGGACUUUUCUAACAUAUGUCUAUGGAAUUCUCGGGUGCCAA	0.745
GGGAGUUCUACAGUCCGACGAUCGAAAAUUCACUGUAUCAUGAAACCCUAAGGGUUUGUUGCACUUCCUGCUUUUUAGGCCUGGAUAACAGUAUCACCAUCCUUAUUUACAGAAGGGUAAAACUGACUCUUAAUGGAAUUCUCGGGUGCCAA	0.39
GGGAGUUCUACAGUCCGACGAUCGGGGAGGCCAGUGUUGUGGGCUUCCUGCUGGGACUGAGAAGGCUCACGAAGGGCAUCCGCAAUGUUGGUUUCACUGAGAGCUGCCUCCUGGUCUCUUCACCACUGUAGUUUGGAAUUCUCGGGUGCCAA	0.41

Repeated from above (series 1):
Oligonucleotide	log2 enrichment
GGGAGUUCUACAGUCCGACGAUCUCAAGUCCUGUGCUACACAUCGUAUGUACCGAAUCGGAGGAAAGGAAAAAAAGGAAAGUAUUAUGUUACGCCGUUCGGAUCUGCACUUCCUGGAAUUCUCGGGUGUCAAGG	-0.101
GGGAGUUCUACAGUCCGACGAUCAAGUCCUGUGCUACACAUCGUAUGUACCGAAUCGGGGAGGGGAAAGGGGUUUGGGGAAAGUAUUAUGUUACGCCGUUCGGAUCUGCACUUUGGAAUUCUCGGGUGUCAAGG	1.18
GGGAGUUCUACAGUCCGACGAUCAGUCCUGUGCUACACAUCGUAUGUACCGAAUCGGGAAAAGGGGAAAAGGGAAAAGGGGAAAGUAUUAUGUUACGCCGUUCGGAUCUGCACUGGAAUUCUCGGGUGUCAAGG	0.449
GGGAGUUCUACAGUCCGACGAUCAGUCCUGUGCUACACAUCGUAUGUACCGAAUCGGGUUUUUGGGUUUGGGUUUUUGGGAAAGUAUUAUGUUACGCCGUUCGGAUCUGCACUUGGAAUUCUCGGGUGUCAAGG	0.319
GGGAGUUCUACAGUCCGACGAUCGCAGGAAGUAAAAACAAAUGGAAAUGCUUCGGAUAGUGGCAGGGGUGGGGGUUGCUUAGGAAAGGGUGGGAUGGGAGUGGGUAAAGAGUUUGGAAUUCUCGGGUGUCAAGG	1.45
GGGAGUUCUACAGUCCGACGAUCUGGCCCUGGUGGCAUGCGGGGAGGUAGAGGUGGCCUCAUGGAUCGUGGUGGUCCCGGUGGAAUGUUCAGAGGUGGCCGUGGUGGAGACAGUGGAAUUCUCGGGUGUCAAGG	0.975
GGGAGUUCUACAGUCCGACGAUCCACAGACAACACGCACCCACACAGACACAGAGGGAAGGGGUUGGGAUGGGGACAGGGUGCACAGCAGGGCGGGGUAGGACCCCAAAACCUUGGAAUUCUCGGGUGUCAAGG	-0.226
